Published values collected from several papers.
Protocols differ between the studies behind these lines. ± marks the error that the study gave.
Melanoma-associated antigen 4 MAGE homology domain: Melanoma-associated antigen 4, MAGE homology domain (Homo sapiens, UniProt P43358)
Chain of UniProt P43358 (whole entry, looked up): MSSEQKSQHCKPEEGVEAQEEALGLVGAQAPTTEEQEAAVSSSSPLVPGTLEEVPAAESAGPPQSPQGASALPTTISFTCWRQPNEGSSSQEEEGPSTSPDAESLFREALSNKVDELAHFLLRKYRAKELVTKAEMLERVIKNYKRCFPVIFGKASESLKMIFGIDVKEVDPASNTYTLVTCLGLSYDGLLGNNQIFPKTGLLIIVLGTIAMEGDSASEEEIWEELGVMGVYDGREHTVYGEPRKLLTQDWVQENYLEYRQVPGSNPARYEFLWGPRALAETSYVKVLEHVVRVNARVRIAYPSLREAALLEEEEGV
PPARG: Peroxisome proliferator-activated receptor gamma (PPARG, Homo sapiens, UniProt P37231)
Chain of UniProt P37231 (whole entry, looked up): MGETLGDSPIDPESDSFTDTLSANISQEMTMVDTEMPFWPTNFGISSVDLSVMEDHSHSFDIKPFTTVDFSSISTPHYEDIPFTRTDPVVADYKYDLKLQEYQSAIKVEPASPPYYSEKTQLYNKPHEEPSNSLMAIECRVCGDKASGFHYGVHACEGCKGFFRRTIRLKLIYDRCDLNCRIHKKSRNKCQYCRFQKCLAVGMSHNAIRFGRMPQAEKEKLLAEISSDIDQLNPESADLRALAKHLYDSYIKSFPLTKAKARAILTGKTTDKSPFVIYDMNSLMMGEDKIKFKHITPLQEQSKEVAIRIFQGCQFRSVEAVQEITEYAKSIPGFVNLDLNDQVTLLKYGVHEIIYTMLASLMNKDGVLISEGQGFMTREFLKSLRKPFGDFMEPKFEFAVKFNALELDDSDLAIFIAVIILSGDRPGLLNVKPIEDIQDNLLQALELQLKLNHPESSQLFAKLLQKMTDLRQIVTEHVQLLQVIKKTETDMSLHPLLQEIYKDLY
HDAC1: Histone deacetylase 1 (HDAC1, Homo sapiens, UniProt Q13547)
Chain of UniProt Q13547 (whole entry, looked up): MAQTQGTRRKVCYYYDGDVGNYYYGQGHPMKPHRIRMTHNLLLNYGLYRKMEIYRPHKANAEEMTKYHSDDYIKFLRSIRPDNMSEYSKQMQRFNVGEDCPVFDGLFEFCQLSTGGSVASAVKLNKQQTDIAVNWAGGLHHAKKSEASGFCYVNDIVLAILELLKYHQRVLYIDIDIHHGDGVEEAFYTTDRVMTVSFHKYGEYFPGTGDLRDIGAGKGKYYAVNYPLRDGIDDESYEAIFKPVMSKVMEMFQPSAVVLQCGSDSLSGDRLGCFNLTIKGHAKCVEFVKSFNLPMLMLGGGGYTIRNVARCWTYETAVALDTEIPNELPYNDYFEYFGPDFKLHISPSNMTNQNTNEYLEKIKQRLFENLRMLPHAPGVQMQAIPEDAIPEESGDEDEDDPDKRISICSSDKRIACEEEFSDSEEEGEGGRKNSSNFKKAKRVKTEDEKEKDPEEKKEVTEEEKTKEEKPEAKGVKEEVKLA
Rhomboid protease AarA: Rhomboid protease AarA (Providencia stuartii, UniProt P46116)
Chain of UniProt P46116 (whole entry, looked up): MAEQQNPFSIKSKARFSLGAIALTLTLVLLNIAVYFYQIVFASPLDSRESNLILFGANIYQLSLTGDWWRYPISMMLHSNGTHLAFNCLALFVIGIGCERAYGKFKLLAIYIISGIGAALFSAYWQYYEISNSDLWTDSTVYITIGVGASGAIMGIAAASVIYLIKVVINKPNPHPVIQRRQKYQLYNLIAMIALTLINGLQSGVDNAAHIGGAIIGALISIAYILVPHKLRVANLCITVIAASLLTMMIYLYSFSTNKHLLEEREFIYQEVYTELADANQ
PPARG ligand-binding domain: Peroxisome proliferator-activated receptor gamma, ligand-binding domain (PPARG, Homo sapiens, UniProt P37231)
CHRM2: Muscarinic acetylcholine receptor M2 (CHRM2, Homo sapiens, UniProt P08172)
Chain of UniProt P08172 (whole entry, looked up): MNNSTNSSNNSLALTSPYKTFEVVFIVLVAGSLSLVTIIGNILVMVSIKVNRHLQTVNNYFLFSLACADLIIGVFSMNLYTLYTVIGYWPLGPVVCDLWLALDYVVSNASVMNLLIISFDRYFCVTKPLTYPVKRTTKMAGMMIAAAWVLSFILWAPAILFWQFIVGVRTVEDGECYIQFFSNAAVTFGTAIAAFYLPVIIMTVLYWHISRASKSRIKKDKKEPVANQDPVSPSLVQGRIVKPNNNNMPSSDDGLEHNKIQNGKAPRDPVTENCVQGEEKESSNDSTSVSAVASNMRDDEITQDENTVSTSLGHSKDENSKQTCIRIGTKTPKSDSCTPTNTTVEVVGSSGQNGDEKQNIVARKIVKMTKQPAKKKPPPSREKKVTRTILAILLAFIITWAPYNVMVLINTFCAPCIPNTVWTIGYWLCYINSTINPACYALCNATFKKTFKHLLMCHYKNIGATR
CCR5: C-C chemokine receptor type 5 (CCR5, Homo sapiens, UniProt P51681)
Chain of UniProt P51681 (whole entry, looked up): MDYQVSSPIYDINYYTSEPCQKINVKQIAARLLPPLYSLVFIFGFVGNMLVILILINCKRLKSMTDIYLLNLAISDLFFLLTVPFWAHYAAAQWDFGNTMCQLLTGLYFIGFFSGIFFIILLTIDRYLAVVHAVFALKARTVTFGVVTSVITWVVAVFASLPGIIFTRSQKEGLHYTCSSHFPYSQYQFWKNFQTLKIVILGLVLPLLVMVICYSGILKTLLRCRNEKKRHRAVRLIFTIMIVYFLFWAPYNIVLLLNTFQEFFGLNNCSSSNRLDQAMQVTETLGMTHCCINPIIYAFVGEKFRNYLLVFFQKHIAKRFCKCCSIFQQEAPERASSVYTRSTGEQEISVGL
Chain of UniProt Q92847 (whole entry, looked up): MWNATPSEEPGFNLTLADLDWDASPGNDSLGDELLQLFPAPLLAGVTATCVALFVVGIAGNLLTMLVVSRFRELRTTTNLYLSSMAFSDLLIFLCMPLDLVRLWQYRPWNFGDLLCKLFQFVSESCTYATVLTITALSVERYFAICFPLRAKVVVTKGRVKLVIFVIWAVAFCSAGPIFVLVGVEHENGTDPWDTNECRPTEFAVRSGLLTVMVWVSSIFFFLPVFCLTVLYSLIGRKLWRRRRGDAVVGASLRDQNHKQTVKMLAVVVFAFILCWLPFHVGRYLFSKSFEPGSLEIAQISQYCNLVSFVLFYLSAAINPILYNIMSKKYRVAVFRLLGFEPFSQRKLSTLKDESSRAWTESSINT
Chain of UniProt O15297 (whole entry, looked up): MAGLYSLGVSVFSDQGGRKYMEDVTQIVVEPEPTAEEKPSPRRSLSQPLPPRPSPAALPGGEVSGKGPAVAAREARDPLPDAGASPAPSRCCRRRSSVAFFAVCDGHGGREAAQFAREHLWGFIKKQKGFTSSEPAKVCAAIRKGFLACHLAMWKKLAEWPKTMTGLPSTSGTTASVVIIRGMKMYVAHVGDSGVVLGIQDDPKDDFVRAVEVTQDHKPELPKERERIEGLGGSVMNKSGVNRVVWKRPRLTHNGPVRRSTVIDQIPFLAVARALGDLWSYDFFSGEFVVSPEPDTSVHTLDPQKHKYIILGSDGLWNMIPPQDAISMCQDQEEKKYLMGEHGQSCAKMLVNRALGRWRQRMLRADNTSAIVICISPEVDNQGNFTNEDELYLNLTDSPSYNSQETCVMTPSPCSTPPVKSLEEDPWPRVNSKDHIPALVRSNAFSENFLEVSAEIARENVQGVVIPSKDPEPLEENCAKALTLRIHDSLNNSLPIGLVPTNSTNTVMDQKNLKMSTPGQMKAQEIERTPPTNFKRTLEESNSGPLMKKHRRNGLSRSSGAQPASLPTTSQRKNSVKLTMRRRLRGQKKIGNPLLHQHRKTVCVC
Chain of UniProt P28482 (whole entry, looked up): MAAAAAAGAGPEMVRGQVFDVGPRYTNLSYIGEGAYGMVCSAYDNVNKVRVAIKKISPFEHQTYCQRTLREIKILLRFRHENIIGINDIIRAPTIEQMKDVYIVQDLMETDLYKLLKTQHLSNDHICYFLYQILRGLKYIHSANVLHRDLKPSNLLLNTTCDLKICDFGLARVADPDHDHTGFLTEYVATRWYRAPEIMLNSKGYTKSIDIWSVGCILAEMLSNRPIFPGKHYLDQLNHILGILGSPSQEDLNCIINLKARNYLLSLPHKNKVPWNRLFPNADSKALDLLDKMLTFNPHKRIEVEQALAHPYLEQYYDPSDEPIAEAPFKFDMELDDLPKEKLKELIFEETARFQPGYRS
Chain of UniProt P18421 (whole entry, looked up): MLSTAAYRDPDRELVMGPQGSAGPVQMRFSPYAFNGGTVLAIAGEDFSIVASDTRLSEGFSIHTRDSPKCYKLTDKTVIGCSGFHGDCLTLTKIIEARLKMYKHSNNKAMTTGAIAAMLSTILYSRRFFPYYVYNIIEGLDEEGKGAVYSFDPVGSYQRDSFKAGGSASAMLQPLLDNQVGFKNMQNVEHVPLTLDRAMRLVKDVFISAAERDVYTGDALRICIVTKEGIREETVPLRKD
Chain of UniProt P06401 (whole entry, looked up): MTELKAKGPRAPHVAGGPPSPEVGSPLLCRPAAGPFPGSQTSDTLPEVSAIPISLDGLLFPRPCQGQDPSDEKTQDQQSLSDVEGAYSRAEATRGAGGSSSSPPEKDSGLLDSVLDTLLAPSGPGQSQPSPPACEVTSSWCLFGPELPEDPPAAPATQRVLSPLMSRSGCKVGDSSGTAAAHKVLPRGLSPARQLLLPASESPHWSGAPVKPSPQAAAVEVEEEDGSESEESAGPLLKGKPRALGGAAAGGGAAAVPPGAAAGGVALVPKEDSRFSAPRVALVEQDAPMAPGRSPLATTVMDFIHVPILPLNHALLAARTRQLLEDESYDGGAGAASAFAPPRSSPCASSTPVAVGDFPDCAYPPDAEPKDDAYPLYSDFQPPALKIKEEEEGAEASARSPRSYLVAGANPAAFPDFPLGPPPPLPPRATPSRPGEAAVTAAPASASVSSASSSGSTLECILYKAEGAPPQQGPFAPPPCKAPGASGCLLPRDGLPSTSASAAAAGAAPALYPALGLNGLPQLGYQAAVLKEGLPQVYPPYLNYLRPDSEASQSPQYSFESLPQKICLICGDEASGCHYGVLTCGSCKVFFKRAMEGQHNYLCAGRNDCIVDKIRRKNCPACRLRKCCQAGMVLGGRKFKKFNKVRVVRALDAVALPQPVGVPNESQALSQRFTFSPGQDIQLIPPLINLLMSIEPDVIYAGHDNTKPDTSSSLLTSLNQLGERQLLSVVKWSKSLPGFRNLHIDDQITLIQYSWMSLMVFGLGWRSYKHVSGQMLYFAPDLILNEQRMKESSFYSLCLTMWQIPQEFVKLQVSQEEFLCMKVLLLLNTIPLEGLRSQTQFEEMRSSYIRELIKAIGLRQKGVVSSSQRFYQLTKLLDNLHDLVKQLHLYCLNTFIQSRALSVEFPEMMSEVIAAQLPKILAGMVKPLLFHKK

CC[C@H](C)[C@@H]1NC(=O)[C@H](Cc2ccc(O)cc2)NC(=O)CSC[C@@H](C(N)=O)NC(=O)[C@H](CC(N)=O)NC(=O)[C@H](Cc2c[nH]cn2)NC(=O)[C@H](Cc2ccc(O)cc2)NC(=O)[C@H](CC(=O)O)NC(=O)[C@H](Cc2ccc(I)cc2)NC(=O)[C@H](CC(C)C)NC(=O)[C@H](CCCNC(=N)N)NC1=O
IC50 (Melanoma-associated antigen 4 MAGE homology domain; binding, inhibitor, TR-FRET displacement; together with: Alexa647-MTP-1): 108 ± 9.3 nM

Cc1c(Cc2cccc(O[C@H](C)C(=O)O)c2Cl)c2ccc(C(=O)N[C@@H](C)c3ccc(C(C)(C)C)cc3)cc2n1C
IC50 (PPARG; ligand displacement, TR-FRET): 58 nM

CC[C@H](C)[C@@H]1NC(=O)[C@H](Cc2ccccc2)NC(=O)CCSCc2cccc(c2)CSCCNC(=O)[C@H](Cc2c[nH]cn2)NC(=O)[C@H](Cc2ccc(O)cc2)NC(=O)[C@H](CC(=O)O)NC(=O)[C@H](Cc2ccc(F)cc2)NC(=O)[C@H](CC(C)C)NC(=O)[C@H](CCCCN)NC1=O
IC50 (Melanoma-associated antigen 4, MHD; with RAD18 (Homo sapiens, UniProt P43358); protein-protein interaction, NanoBRET; HEK293; 1.5 h): 1620 nM

CC(=O)OC1CCC2(C)C(CCC3(C)C2CC=C2C4C(C)C(C)CCC4(C(=O)O)CCC23C)C1(C)C (stereo not drawn)
IC50 (UGT2B17 (Homo sapiens, UniProt O75795); enzyme activity, inhibitor): > 100000 nM

NCCNC(=O)[C@H](CC1CCCCC1)NC(=O)c1ccc(CNc2ccccn2)s1
IC50 (PPM1D (Homo sapiens, UniProt O15297); enzyme activity, inhibitor): 365 nM

O=C1C(Cl)=C(NCCNCCO)C(=O)c2ccccc21
IC50 (NSD2 (Homo sapiens, UniProt O96028); enzyme activity, inhibitor, AlphaLISA): 120 nM

Cc1c(Cc2ccc(OC(C)(C)C(=O)O)cc2)c2ccc(C(=O)N[C@@H](C)c3cccc(C4CC4)c3)cc2n1C
IC50 (PPARG; ligand displacement, TR-FRET): 3 nM

CCC1(CC)CC(=O)N(C2c3cc(C(=O)NC4c5ccccc5CC4O)ccc3OC2(C)COC)C(=N)N1 (stereo not drawn)
IC50 (SCN5A (Homo sapiens, UniProt Q14524); ion current, inhibitor, patch clamp; HEK293; pH 7.3): 15000 nM

Cc1nc2c(F)cc(-c3nc(Nc4ccc(CC(=O)NCCCCC(=O)NO)cc4)ncc3F)cc2n1C(C)C
IC50 (HDAC1; enzyme activity, inhibitor): 44 nM

COc1ccc(C(=O)c2c(C(=O)NCCCN(C)C)oc3ccc(Cl)cc3c2=O)cc1OC
IC50 (GHSR (Homo sapiens, UniProt Q92847); receptor internalization, bystander BRET; 60 min): 41.7 nM

Cc1onc(-c2ccccc2)c1CNC(=O)C(C(F)(F)F)C(F)(F)F
IC50 (Rhomboid protease AarA; enzyme activity, inhibitor, fluorescence): 12000 nM

CC[C@H](C)[C@@H]1NC(=O)[C@H](Cc2ccc(O)cc2)NC(=O)CSCCNC(=O)[C@H](CC(N)=O)NC(=O)[C@H](Cc2c[nH]cn2)NC(=O)[C@H](Cc2ccc(O)cc2)NC(=O)[C@H](CC(=O)O)NC(=O)[C@H](Cc2ccc(O)cc2)NC(=O)[C@H](CC(C)C)NC(=O)[C@H](CCCNC(=N)N)NC1=O
IC50 (Melanoma-associated antigen 4 MAGE homology domain; binding, inhibitor, TR-FRET displacement; together with: Alexa647-MTP-1): 42.7 ± 9.6 nM

Cc1nc2c(F)cc(-c3nc(Nc4ccc(CC(=O)NCCCC(=O)NO)cc4)ncc3F)cc2n1C(C)C
IC50 (HDAC1; enzyme activity, inhibitor): 5.2 nM

Cc1nc2ccc(Br)cc2c(=O)n1N
IC50 (collagenase; enzyme activity, inhibitor; together with: casein substrate): 27 ± 1.41 µg/mL

Cc1nc2cc(C(=O)N[C@@H](C)c3ccc(C(C)(C)C)cc3)ccc2n1Cc1cccc(OC(C)(C)C(=O)O)c1
IC50 (PPARG; ligand displacement, TR-FRET): 12 nM

C[C@@H]1Cc2c([nH]c3ccccc23)[C@@H](c2c(F)cc(/C=C/C(=O)O)cc2F)N1C12CC(C1)C2
IC50 (PGR (Homo sapiens, UniProt P06401); PR receptor activity, antagonist, cell-based): 655 nM

Cc1c(Cc2cccc(OC(C)(C)C(=O)O)c2)c2ccc(C(=O)N[C@H](C)c3ccc(C(C)(C)C)cc3)cc2n1C
IC50 (PPARG; ligand displacement, TR-FRET): 1 nM

CC1C(=O)N(S(=O)(=O)c2ccc(C#N)cc2)C1c1ccccc1 (racemic)
IC50 (Rhomboid protease AarA; enzyme activity, inhibitor): 134000 nM

Cc1c(Cc2ccc(OC(C)C(=O)O)cc2)c2ccc(C(=O)NC(C)c3cccc(C(F)(F)F)c3)cc2n1C (mixture of isomers)
IC50 (PPARG ligand-binding domain; reporter gene, luciferase reporter; HEK293T, Gal4-PPARγ LBD): 1950 nM

Cc1nc(Nc2ncc(C(=O)Nc3c(C)cccc3Cl)s2)cc(N2CCN(CCNC(=O)c3ccc(C(=O)c4ccc(OCC(=O)NCCOCCOCCCCCCCl)cc4)cc3)CC2)n1
IC50 (HCK (Homo sapiens, UniProt P08631)): < 4 nM

Cc1cc(C(=O)NCC(F)c2ccc(Cl)cc2Cl)c(Oc2cccc(C3CC3)c2)nn1 (stereo not drawn)
IC50 (serine palmitoyltransferase (Zymoseptoria tritici, UniProt F9X349+F9XMN6)): 1230 ± 155 nM

Cc1cc(C)c(S(=O)(=O)N(CC(=O)O)c2ccc(Nc3ccnc(N4CCCC4)n3)cc2)c(C)c1
IC50 (MAPK1 (Homo sapiens, UniProt P28482); enzyme activity, inhibitor): > 100000 nM

COCc1cc2c(cn1)CN(C(=O)Nc1nc(-c3ccc(F)cc3)ccc1N)C2
IC50 (Lysine-specific histone demethylase 1A, with CoREST (KDM1A, Homo sapiens, UniProt O60341); demethylase activity, inhibitor; LSD1-CoREST complex): > 150000 nM

CC(C)(C)OC(=O)c1ccccc1NC(=O)C(C(F)(F)F)C(F)(F)F
IC50 (Rhomboid protease AarA; enzyme activity, inhibitor, fluorescence): 1300 nM

Cc1c(Cc2cccc(OC(C)(C)C(=O)O)c2)c2ccc(C(=O)NCc3ccc(C(C)(C)C)cc3)cc2n1CC1CCC1
IC50 (PPARG ligand-binding domain; reporter gene, luciferase reporter; HEK293T, Gal4-PPARγ LBD): 230 nM

O=C(CCNC(=O)CNC(=O)CC(c1ccccc1)(c1ccccc1)c1ccccc1)NC[C@@H]1CCCN(C[C@H]2C[C@H](F)C2)C1
IC50 (CHRM2; ligand displacement, radioligand; cell membranes): > 30000 nM

Fc1ccc(Nc2nc(NC3CCCCC3)c3cc(Br)ccc3n2)cc1F
IC50 (ADRB2 (Homo sapiens, UniProt P07550, Q170L); β-arrestin2 recruitment, antagonist, BRET; HEK293; mutant Q170L, together with: isoprenaline 1 µM): 200 nM

Cc1nn(-c2cccc(N)c2)c(=O)c2cnc(Nc3ccc(N4CCNCC4)cc3)nc12
IC50 (TBK1 (Homo sapiens, UniProt Q9UHD2); enzyme activity, inhibitor): > 10000 nM

Cc1nnc(-c2ccc(CC(=O)NC(CCN3C4CCC3CC(n3c(C)nnc3C(C)C)C4)c3ccccc3)cc2)nn1 (stereo not drawn)
IC50 (CCR5; calcium mobilization, antagonist; HEK-293T; 2 h preincubation, top constrained to 1, together with: 0.1 µM PSC-RANTES): 19.5 nM

O=C(O)c1ccc(Oc2ccc(Cl)cc2NS(=O)(=O)c2ccc(Cl)c(Cl)c2)cc1
IC50 (CCR5; antagonist; U2OS membranes; 25 °C, together with: 20 nM CCL3): 4950 nM

Cc1nc2c(F)cc(-c3nc(Nc4ccc(NC(=O)CCCC(=O)NO)cc4)ncc3F)cc2n1C(C)C
IC50 (HDAC1; enzyme activity, inhibitor): 91 nM

Cc1cc(C)nc(NC(=S)N2CCN(c3ccc(C(F)(F)F)cn3)CC2)c1
IC50 (LDHA (Homo sapiens, UniProt P00338); enzyme activity, inhibitor): > 57000 nM

O=C(NCCCN1CCCC1=O)c1ccccc1NC(=O)C(C(F)(F)F)C(F)(F)F
IC50 (Rhomboid protease AarA; enzyme activity, inhibitor, fluorescence): 19000 nM

CC1(F)CN(C(=O)Cn2c(=O)c(C(=O)NCc3ccc(Cl)cc3)cc3nc(N4CCN(CCN)C4=O)cnc32)C1
IC50 (KCNH2 (Homo sapiens, UniProt Q12809); ion current, automated patch clamp; CHO expressing hERG): > 40000 nM

Cc1c(Cc2ccc(OC(C)C(=O)O)cc2)c2ccc(C(=O)N[C@@H](C)c3ccc(C(C)C)cc3)cc2n1C (stereo partly drawn)
IC50 (PPARG ligand-binding domain; reporter gene, luciferase reporter; HEK293T, Gal4-PPARγ LBD): 16000 nM

Cc1ccc(CNC(=O)[C@H](CCc2ccccc2)NC(=O)[C@H](CCc2ccccc2)NC(=O)[C@@H](N)Cc2ccncc2)cc1
IC50 (Psmb1/Psmb8 (Rattus norvegicus, UniProt P18421+P28064); enzyme activity, inhibitor; together with: Ac-ANW-aminocoumarin, PA28α 12 nM): 880 nM

CC(C)CCOc1ccccc1NC(=O)C(C(F)(F)F)C(F)(F)F
IC50 (Rhomboid protease AarA; enzyme activity, inhibitor, fluorescence): 2200 nM

Cc1c(Cc2ccc(OC(C)(C)C(=O)O)cc2)c2ccc(C(=O)N[C@@H](C)c3ccc(C(C)(C)C)cc3)cc2n1C
IC50 (PPARG; ligand displacement, TR-FRET): 503 nM

Cc1cccc(C)c1NC(=O)C(C(F)(F)F)C(F)(F)F
IC50 (Rhomboid protease AarA; enzyme activity, inhibitor, fluorogenic peptide): 17000 nM

O=C(CCCCc1ccc(OP(=O)(O)O)c(OP(=O)(O)O)c1)N1CCCCC1
IC50 (Signal transducer and activator of transcription 5B, SH2 (STAT5B, Homo sapiens, UniProt P51692); ligand displacement, FP): 1530 nM

O=C(Nc1cc(Cl)ccc1OCC1CC1)C(C(F)(F)F)C(F)(F)F
IC50 (Rhomboid protease AarA; enzyme activity, inhibitor, fluorescence): 2200 nM

CC1(C)CCC(CN2CCN(c3ccc(C(=O)NS(=O)(=O)c4ccc(NCC5CCOCC5)c([N+](=O)[O-])c4)c(Oc4cnc5[nH]ccc5c4)c3)CC2)=C(c2ccc(Cl)cc2)C1
IC50 (MCL1 (Homo sapiens, UniProt Q07820); binding, inhibitor, TR-FRET competition): > 10000 nM

CCCCCCCC(=O)Nc1ccc(Nc2ncc(F)c(-c3cc(F)c4nc(C)n(C(C)C)c4c3)n2)cc1
IC50 (HDAC1; enzyme activity, inhibitor): > 1000 nM

O=C(Cc1ccccc1)NCCOc1ccccc1NC(=O)C(C(F)(F)F)C(F)(F)F
IC50 (Rhomboid protease AarA; enzyme activity, inhibitor, fluorescence): 12500 nM

O=C(Cc1ccc(OCc2ccccc2)cc1)NC1(C(=O)O)CCN(C(=O)c2ccc(-c3cccc(Cl)c3)cc2)CC1
IC50 (CHRM2; antagonist, GloSensor cAMP): > 10000 nM

A few entries again:
COCc1cc2c(cn1)CN(C(=O)Nc1nc(-c3ccc(F)cc3)ccc1N)C2
IC50 (Lysine-specific histone demethylase 1A, with CoREST (KDM1A, Homo sapiens, UniProt O60341); demethylase activity, inhibitor; LSD1-CoREST complex): > 150000 nM

Fc1ccc(Nc2nc(NC3CCCCC3)c3cc(Br)ccc3n2)cc1F
IC50 (ADRB2 (Homo sapiens, UniProt P07550, Q170L); β-arrestin2 recruitment, antagonist, BRET; HEK293; mutant Q170L, together with: isoprenaline 1 µM): 200 nM

Cc1nc2ccc(Br)cc2c(=O)n1N
IC50 (collagenase; enzyme activity, inhibitor; together with: casein substrate): 27 ± 1.41 µg/mL

O=C(Cc1ccc(OCc2ccccc2)cc1)NC1(C(=O)O)CCN(C(=O)c2ccc(-c3cccc(Cl)c3)cc2)CC1
IC50 (CHRM2; antagonist, GloSensor cAMP): > 10000 nM
